Results pooled from the literature.
Target: Cytochrome P450 2C9 (CYP2C9, Homo sapiens, UniProt P11712)
Sequence of UniProt P11712 (whole entry, looked up): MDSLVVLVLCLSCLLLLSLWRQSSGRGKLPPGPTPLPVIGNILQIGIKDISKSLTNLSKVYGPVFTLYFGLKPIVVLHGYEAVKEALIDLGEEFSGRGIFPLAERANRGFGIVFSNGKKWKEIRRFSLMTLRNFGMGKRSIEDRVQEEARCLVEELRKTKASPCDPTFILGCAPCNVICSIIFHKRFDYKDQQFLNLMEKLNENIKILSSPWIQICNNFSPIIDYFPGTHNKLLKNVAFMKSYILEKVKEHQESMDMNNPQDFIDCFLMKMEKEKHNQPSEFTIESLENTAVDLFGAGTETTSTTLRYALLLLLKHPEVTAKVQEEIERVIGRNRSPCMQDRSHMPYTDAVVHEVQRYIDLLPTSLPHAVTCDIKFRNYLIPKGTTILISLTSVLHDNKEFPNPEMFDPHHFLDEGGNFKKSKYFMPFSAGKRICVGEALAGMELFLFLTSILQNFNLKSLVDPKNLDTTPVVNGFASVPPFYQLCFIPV

| Compound | test | test system | conditions | IC50 [µM] |
| --- | --- | --- | --- | --- |
| C[C@](C(=O)NC1CCOCC1)(c1cncnc1)N(C(=O)[C@H](F)Cl)c1ccc(OC(F)(F)Cl)cc1 | enzyme activity, inhibitor | – | 10 (unit not given) | > 50 |
| O=c1nc(NO)ccn1[C@@H]1O[C@H](CO)[C@@H](O)[C@H]1O | – | – | 20 min, pH 7.4 | > 100 |
| CC(C)c1ccc(Cn2ccc([C@H](C)[C@](O)(Cn3cnnn3)c3ccc(F)cc3F)n2)cc1 | enzyme activity, inhibitor | human, liver microsomes | – | 4.22 |
| NC(=O)c1c(F)ccc(OCc2nc3cc(Cl)cnc3s2)c1F | enzyme activity, inhibitor, fluorescence | – | – | > 33.7 |
| O=C1c2oc3cc(O)c(O)cc3c2C(=O)c2oc3cc(O)c(O)cc3c21 | enzyme activity, inhibitor | human, liver microsomes | 1 h, pH 7.4 | 27.5 |
| COc1ccc2c(c1OCc1ccccc1)C[C@@H](C(=O)O)N(c1nc3ccc(C#N)cc3o1)C2 | enzyme activity, inhibitor | human, liver microsomes | 15 min, pH 7.4 | 31 |
| C[C@@H](c1ccn(Cc2ccc(Cl)c(Cl)c2)n1)[C@](O)(Cn1cnnn1)c1ccc(F)cc1F | enzyme activity, inhibitor | human, liver microsomes | – | 4.3 |
| CCC(=O)N(C)c1ccc(Cl)c(Cl)c1 | enzyme activity, inhibitor | human, liver microsomes | 5 min | > 25 |
| C[C@@H](c1ccn(Cc2ccc(I)cc2)n1)[C@](O)(Cn1cnnn1)c1ccc(F)cc1F | enzyme activity, inhibitor | human, liver microsomes | – | 2.37 |
| Cc1c(NC(=O)c2ccc3c(c2)CC[C@@H]2C[C@@](O)(C(F)(F)F)CC[C@@]32Cc2ccccc2)ccc[n+]1[O-] | enzyme activity, inhibitor | human, liver microsomes | – | 21 |
| C=CC(=O)Nc1cc(Nc2nccc(-c3cn(C)c4ccccc34)n2)c(OCC(F)(F)F)nc1N(C)CCN(C)C | enzyme activity, inhibitor | human, liver microsomes | – | > 100 |
| O=C(NC1CCC(F)(F)CC1)C(c1cncnc1)N(C(=O)C(F)Cl)c1ccc(-c2cncs2)cc1 (centres unmarked) | enzyme activity, inhibitor | – | 10 (unit not given) | 15.6 |
| Cc1cc(/C=C/C#N)cc(C)c1Oc1nc(NC2CCN(Cc3ccc(S(C)(=O)=O)cc3)CC2)nc2ncccc12 | enzyme activity, inhibitor | – | 10 min | 6.76 |
| O=C(O)C(O)Cc1ccc(O)c(O)c1 (centres unmarked) | inhibitor | – | – | 99 |
